{"data": "Published values collected from several papers", "note": "Parts stem from different laboratories: compare values within a part only.", "UniProt Q9NQU5, sequence (whole entry, looked up)": "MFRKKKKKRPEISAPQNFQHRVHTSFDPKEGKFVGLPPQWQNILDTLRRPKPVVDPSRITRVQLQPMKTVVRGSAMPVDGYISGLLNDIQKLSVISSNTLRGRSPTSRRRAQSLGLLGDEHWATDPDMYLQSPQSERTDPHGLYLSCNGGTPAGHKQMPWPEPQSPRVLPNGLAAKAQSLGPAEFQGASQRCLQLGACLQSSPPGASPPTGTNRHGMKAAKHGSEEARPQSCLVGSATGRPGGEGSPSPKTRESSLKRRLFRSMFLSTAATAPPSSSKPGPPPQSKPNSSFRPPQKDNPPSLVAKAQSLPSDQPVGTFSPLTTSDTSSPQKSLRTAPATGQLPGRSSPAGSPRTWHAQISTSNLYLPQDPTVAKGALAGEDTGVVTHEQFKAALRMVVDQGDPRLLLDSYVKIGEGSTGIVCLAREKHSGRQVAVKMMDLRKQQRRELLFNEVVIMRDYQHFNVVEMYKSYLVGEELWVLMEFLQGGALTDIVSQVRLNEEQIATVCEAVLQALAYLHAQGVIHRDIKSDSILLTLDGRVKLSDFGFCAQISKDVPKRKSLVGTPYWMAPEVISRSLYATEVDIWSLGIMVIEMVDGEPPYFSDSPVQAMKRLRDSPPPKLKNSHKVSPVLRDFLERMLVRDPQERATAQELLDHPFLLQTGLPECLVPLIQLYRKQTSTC", "UniProt Q9UBE8, sequence (whole entry, looked up)": "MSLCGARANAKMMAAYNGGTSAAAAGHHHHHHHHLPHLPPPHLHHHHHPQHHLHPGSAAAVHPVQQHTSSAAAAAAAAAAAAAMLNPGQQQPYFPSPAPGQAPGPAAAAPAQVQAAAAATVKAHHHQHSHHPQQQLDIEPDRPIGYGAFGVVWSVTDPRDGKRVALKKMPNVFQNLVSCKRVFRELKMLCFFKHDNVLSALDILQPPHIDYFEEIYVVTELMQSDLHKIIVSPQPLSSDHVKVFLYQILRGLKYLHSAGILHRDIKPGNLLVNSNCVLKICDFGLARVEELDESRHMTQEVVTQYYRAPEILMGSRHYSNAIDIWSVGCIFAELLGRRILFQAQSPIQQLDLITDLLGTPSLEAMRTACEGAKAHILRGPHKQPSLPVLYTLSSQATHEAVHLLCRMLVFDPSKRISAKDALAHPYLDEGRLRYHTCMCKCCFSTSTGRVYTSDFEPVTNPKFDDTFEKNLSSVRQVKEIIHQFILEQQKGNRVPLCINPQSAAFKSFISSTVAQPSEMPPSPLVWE", "UniProt Q9Y6R4, sequence (whole entry, looked up)": "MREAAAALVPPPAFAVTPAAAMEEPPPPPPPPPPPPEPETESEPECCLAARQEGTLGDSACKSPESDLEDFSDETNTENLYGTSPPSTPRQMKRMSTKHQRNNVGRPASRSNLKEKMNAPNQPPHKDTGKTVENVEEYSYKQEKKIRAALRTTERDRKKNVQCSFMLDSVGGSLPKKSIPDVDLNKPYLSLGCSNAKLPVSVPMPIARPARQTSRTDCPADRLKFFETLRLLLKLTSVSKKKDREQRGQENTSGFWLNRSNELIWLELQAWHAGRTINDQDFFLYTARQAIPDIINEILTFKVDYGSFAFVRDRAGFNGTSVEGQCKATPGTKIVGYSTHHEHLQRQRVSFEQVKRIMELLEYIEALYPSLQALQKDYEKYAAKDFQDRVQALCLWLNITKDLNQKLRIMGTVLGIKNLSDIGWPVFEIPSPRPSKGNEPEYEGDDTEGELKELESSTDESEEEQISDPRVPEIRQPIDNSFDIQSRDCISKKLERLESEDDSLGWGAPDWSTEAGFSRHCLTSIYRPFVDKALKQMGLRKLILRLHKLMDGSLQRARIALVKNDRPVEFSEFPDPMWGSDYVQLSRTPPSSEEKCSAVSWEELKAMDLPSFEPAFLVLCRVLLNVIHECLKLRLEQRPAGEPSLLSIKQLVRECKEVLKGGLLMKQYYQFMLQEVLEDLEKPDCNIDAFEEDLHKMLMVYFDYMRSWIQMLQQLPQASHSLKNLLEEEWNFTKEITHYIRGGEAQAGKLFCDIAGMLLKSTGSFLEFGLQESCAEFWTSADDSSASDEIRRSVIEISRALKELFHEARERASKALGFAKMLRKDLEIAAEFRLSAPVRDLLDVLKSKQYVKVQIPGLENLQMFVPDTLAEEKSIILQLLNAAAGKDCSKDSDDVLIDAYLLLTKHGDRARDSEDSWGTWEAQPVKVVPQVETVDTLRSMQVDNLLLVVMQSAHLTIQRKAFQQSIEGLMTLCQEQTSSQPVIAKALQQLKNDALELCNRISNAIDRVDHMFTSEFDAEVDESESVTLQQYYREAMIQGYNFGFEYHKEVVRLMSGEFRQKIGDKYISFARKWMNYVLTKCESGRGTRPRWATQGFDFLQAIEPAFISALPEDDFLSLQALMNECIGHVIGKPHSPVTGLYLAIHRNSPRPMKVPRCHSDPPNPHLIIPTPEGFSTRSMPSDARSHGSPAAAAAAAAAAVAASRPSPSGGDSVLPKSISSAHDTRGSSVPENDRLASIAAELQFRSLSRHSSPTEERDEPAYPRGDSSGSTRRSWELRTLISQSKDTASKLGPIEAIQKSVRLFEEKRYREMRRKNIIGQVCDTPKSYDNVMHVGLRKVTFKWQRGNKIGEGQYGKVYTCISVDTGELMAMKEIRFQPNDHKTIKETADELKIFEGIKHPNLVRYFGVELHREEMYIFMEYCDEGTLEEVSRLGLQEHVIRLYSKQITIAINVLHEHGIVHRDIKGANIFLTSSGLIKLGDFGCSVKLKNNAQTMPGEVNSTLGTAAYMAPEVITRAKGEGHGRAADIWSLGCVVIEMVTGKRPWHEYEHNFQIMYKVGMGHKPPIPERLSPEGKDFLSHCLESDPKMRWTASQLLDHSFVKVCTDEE", "UniProt O94921, sequence (whole entry, looked up)": "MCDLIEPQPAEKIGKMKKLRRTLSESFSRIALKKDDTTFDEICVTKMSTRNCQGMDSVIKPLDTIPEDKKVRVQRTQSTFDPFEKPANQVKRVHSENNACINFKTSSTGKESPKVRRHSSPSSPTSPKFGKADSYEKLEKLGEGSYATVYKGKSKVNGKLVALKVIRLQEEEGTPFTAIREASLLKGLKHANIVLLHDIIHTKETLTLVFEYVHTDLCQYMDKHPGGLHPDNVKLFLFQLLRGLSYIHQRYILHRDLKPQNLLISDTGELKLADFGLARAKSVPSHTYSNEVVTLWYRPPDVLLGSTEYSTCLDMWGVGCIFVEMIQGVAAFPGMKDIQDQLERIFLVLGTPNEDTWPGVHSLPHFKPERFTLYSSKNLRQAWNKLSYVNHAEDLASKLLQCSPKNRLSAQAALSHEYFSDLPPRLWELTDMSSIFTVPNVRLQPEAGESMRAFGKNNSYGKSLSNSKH"}
{"data": "Set 1", "SMILES": "COCCOc1nc(-c2ccc(Cl)nc2)nc2c1CN(C(=O)c1ncn3ccccc13)CC2", "effect on": "cell-free assay", "technique": "competition with immobilised ligand", "tested at": "0.1 µM"}
{"target": "Insulin receptor-related protein (INSRR, Homo sapiens, UniProt P14616)", "remaining binding": "100%"}
{"target": "Epidermal growth factor receptor (EGFR, Homo sapiens, UniProt P00533)", "remaining binding": "88%"}
{"target": "Serine/threonine-protein kinase N1 (PKN1, Homo sapiens, UniProt Q16512)", "remaining binding": "100%"}
{"target": "Cyclin-dependent kinase 14 (CDK14, Homo sapiens, UniProt O94921)", "remaining binding": "100%"}
{"target": "Insulin-like growth factor 1 receptor (IGF1R, Homo sapiens, UniProt P08069)", "remaining binding": "82%"}
{"target": "Serine/threonine-protein kinase NLK (NLK, Homo sapiens, UniProt Q9UBE8)", "remaining binding": "100%"}
{"target": "Rho-associated protein kinase 1 (ROCK1, Homo sapiens, UniProt Q13464)", "remaining binding": "93%"}
{"data": "Set 2", "SMILES": "C=CC(=O)N1CCC([C@@H]2CCNc3c(C(N)=O)c(-c4ccc(Oc5ccccc5)cc4)nn32)CC1", "mode": "inhibitor", "tested at": "1 µM"}
{"target": "Atypical kinase COQ8A, mitochondrial (COQ8A, Homo sapiens, UniProt Q8NI60)", "effect on": "enzyme activity", "inhibition": "12%"}
{"target": "Non-receptor tyrosine-protein kinase TYK2, JH1 domain (TYK2, Homo sapiens, UniProt P29597)", "inhibition": "1%"}
{"target": "Serine/threonine-protein kinase PAK 6 (PAK6, Homo sapiens, UniProt Q9NQU5)", "effect on": "enzyme activity", "inhibition": "14%"}
{"target": "Serine/threonine-protein kinase RIO2 (RIOK2, Homo sapiens, UniProt Q9BVS4)", "effect on": "enzyme activity", "inhibition": "0%"}
{"target": "Mitogen-activated protein kinase kinase kinase 4 (MAP3K4, Homo sapiens, UniProt Q9Y6R4)", "effect on": "enzyme activity", "inhibition": "12%"}
{"data": "Set 3", "target": "Cyclin-dependent kinase 5, with p25 (CDK5, Homo sapiens, UniProt Q00535)", "effect on": "enzyme activity", "mode": "inhibitor", "tested at": "0.5 µM", "relative to": "control", "UniProt Q00535, sequence (whole entry, looked up)": "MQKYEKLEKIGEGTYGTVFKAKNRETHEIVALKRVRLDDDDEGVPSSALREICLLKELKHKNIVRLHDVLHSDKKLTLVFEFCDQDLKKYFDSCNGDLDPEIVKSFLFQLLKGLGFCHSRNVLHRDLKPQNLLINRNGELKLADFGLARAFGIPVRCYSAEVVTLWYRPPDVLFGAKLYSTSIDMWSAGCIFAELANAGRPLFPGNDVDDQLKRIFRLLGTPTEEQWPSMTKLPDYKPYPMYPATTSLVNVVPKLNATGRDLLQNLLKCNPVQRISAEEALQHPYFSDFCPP"}
{"SMILES": "CO[C@H]1C[C@@H]2CC[C@@H](C)[C@@](O)(O2)C(=O)C(=O)N2CCCC[C@H]2C(=O)O[C@H]([C@H](C)C[C@@H]2CC[C@@H](O)[C@H](OC)C2)CC(=O)[C@H](C)/C=C(\\C)[C@@H](O)[C@@H](OC)C(=O)[C@H](C)C[C@H](C)/C=C/C=C/C=C/1C", "remaining activity [%]": 96.3}
{"SMILES": "CC(C)[C@H](CO)Nc1nc(Nc2cc(N)cc(Cl)c2)c2ncn(C(C)C)c2n1", "remaining activity [%]": 3.31}
{"SMILES": "O=C1NC(=O)C(c2cn(CCCO)c3ncccc23)=C1c1cnccn1", "remaining activity [%]": 103}
{"SMILES": "Cc1ccc(NC(=O)c2ccc(CN3CCN(C)CC3)cc2)cc1Nc1nc(-c2cccnc2)cs1", "remaining activity [%]": 104}
{"SMILES": "Cn1sc(=O)n(Cc2ccccc2)c1=O", "remaining activity [%]": 103}
{"SMILES": "N#CC(C#N)=C(N)/C(C#N)=C/c1ccc(O)cc1", "remaining activity [%]": 97.6}
{"SMILES": "CNC(=O)c1cc(Oc2ccc(NC(=O)Nc3ccc(Cl)c(C(F)(F)F)c3)cc2)ccn1", "remaining activity [%]": 97.2}
{"SMILES": "O=C1NC(=O)C(c2cn(CCCn3ccnc3)c3ccccc23)=C1Nc1ccccc1", "remaining activity [%]": 86}
{"SMILES": "CN(C)c1ccc(C=C2C(=O)Nc3ccccc32)cc1", "remaining activity [%]": 102}
{"SMILES": "Cc1ccc(Nc2nccc(N(C)c3ccc4c(C)n(C)nc4c3)n2)cc1S(N)(=O)=O", "remaining activity [%]": 95.1}
{"SMILES": "COc1cc2ncnc(Nc3ccc(F)c(Cl)c3)c2cc1OCCCN1CCOCC1", "remaining activity [%]": 95.4}
{"SMILES": "COc1cc2nccc(Oc3ccc(NC(=S)NC(=O)c4ccccc4C)cc3)c2cc1OC", "remaining activity [%]": 93.2}
{"SMILES": "OCC(O)CCON=C1C(c2c(O)[nH]c3ccccc23)=Nc2ccccc21 (centres unmarked)", "remaining activity [%]": 16.4}
{"SMILES": "Cc1cccc(-c2[nH]c(C(C)(C)C)nc2-c2ccc3c(c2)OCO3)n1", "remaining activity [%]": 90.1}
{"data": "Set 4", "Structure (SMILES)": "CC(C)n1cnc(-c2ccc(F)cc2)c1-c1ncc(C(=O)Nc2ccc(N3CCN(C)CC3)cc2)[nH]1", "technique": "Phase 2a trial", "species": "idiopathic pulmonary fibrosis patients"}
{"refers to": "blood bilirubin increased", "dose": "dose not given", "setting": "grade 4 maximum intensity, all arms", "patients with adverse events [%]": 0}
{"refers to": "blood alkaline phosphatase increased", "dose": "dose not given", "setting": "grade 1 maximum intensity, all arms", "patients with adverse events [%]": 0}
{"refers to": "urinary tract infection", "dose": "dose not given", "setting": "grade 4 maximum intensity, all arms", "patients with adverse events [%]": 0}
{"refers to": "gamma-glutamyltransferase increased", "dose": "dose not given", "setting": "grade 5 maximum intensity, all arms", "patients with adverse events [%]": 0}
{"refers to": "blood bilirubin increased", "dose": "dose not given", "setting": "grade 5 maximum intensity, all arms", "patients with adverse events [%]": 0}
{"refers to": "bile acids increased", "dose": "30 mg once daily", "setting": "grade 1 maximum intensity", "patients with adverse events [%]": 0}
{"refers to": "urinary tract infection", "dose": "60 mg once daily", "setting": "grade 3 maximum intensity", "patients with adverse events [%]": 0}
{"refers to": "muscular weakness", "dose": "30 mg once daily", "setting": "grade 1 maximum intensity", "patients with adverse events [%]": 0}
{"refers to": "urinary tract infection", "dose": "60 mg once daily", "setting": "grade 5 maximum intensity", "patients with adverse events [%]": 0}
